Measured values of several laboratories.
Each numbered part is a random draw from the data of one study; scales do not carry over between parts.

Block 1
Target: Sal-like protein 4, full length isoform A (SALL4, Homo sapiens, UniProt Q9UJQ4, residues 1-1053)
Chain of UniProt Q9UJQ4 (whole entry, looked up): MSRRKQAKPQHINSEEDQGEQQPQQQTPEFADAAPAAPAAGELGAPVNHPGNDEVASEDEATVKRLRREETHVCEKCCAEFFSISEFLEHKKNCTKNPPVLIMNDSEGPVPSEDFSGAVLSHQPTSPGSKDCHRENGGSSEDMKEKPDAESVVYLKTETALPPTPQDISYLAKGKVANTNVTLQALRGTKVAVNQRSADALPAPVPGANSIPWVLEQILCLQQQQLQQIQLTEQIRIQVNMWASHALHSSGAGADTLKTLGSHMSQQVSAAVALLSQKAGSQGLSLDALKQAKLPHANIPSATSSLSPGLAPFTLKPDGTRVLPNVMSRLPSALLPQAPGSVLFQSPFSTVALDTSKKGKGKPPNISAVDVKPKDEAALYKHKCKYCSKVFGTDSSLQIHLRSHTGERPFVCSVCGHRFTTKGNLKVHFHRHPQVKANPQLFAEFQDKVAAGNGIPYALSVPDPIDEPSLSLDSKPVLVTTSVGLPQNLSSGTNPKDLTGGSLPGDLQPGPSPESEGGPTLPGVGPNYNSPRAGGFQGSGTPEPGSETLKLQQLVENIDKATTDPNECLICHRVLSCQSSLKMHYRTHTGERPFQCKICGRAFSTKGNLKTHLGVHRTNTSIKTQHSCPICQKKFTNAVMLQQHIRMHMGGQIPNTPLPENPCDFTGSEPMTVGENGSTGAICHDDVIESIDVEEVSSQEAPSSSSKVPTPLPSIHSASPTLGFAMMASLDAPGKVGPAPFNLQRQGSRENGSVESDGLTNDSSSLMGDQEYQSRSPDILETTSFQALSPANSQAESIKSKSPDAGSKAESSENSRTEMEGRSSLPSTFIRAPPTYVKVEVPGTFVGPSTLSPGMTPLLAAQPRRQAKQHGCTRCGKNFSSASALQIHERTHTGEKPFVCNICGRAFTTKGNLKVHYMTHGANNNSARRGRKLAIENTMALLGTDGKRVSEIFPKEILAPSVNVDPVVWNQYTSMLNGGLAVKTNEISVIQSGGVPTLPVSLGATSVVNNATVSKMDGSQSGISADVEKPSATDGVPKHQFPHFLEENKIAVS
Technique: universal PBM
Form: double-stranded DNA, one strand shown
Sample: in vitro
Tested at: 600 nM
Notes: 8-mer, flanks averaged, mean of replicates
Reading: higher = stronger binding
Oligonucleotide	E-score
CTCACAAA	0.135
CTATTAGC	0.214
CTTAACCA	0.126
CTATCTAC	0.0677
CACAGTGG	-0.0693
AAGGTATT	0.181
CACGTCCA	-0.149
CTGACGTA	-0.111
AACAGAGC	-0.00219
AACTACAG	-0.0416
AACGCGGT	-0.11
CGCCCGCG	-0.368
AATAGGTA	0.322
GACGCTAC	-0.107
AGAGACCC	-0.213
ACGGTGCC	-0.346
CAGCAATA	0.215
AGAGCTCA	-0.176

Block 2
Target: Max-binding protein MNT, bHLH-zipper, MAX partner unstated (MNT, Homo sapiens, UniProt Q99583, residues 220-300)
Technique: protein-binding microarray
Form: double-stranded DNA, one strand shown
Sample: in vitro
Tested at: not given
Notes: k-mer, scored over probes, only values ≥0.25
Reading: higher = stronger binding
Target sequence (chain): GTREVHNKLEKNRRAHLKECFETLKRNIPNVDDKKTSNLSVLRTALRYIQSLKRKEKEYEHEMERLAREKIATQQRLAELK
Oligonucleotide	E-score
ATCCGCAC	0.254
CGTCCACG	0.318
CGTGGTAG	0.386
CCCTCGCG	0.275
CGTACACG	0.423
CGAGCACG	0.353
GTGCGCGA	0.252
ATGCCCCA	0.277
ACACGCCC	0.321
ACACGTTA	0.405
GCGTGGAC	0.378
ACATGTAA	0.307
CCTCCCCA	0.391
GCACGTGC	0.498
GACCCGCC	0.294
ATCCATGC	0.297
CACATGGG	0.468
AACGTGCG	0.42
ATGCGGAC	0.32
CATGTGCA	0.474
CGTGTAAA	0.319
CCATGTGA	0.469
CCCGTGTC	0.283
GGCGTGGA	0.316

Block 3
Target: RNA binding protein fox-1 homolog 2, RRM domain, GST-SBP tag (RBFOX2, Homo sapiens, UniProt O43251-10, residues 100-194)
Technique: RNA Bind-n-Seq
Form: RNA
Sample: in vitro
Tested at: 365 nM
Notes: natural RNA segment, single round, ends assumed
Baseline: no-protein control
Reading: higher = stronger binding
Constant ends, left off below: GGGAGUUCUACAGUCCGACGAUC … UGGAAUUCUCGGGUGCCAA
Construct (chain): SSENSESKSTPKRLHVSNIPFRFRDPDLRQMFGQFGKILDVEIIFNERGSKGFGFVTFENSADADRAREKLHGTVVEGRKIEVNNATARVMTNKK
Oligonucleotide	RBNS enrichment (R)
UGAGCCUAGGGAGCUGGGAAAACAGUUGGGCCUAGUCUGUUUUUGAAUUGCAUUGCAUUGAGUUGUACCGGUAUUGCACAGCCCUGCGUGUGAGCCAGAUGUAACACUCC	4.53
AAGAUCUCUCAAAUCUUGGAUUAUAAUUUUAUUAGAGUUUUGUAAUAAAAUUUAUUUUAUAACAAGAGCAAGGCGUAUACUAUUUUUCAGAAGACCAUUGGAUGGGCCAA	0.534
GGUAGAGUCCUGUAAAUGAAUGCUCUGGGCUAGAUACAGCUUGGAGAACCUGCUGGCCUUGUUAGACAGCACUUGGGCCUUUGCCAGCAGCAAGAGGUGAAGCGAAGCCA	3.12
CUGUUUCUGACAAACUAUCAAGACAUUCCGUCCCUCAUCCACCUCAGCUCCCAAAGGCCCACUGCAGUGGUGGUUCAGUGAGCACUCUGAUGAGUGCUGAUGGGCUAACC	0.28
GGGCCAUACCAGGGCGCGGCGCUGGGUUGCCACACUUGGGAAAGCAGCCCGGAGCUGGGUGCUGGGGAAGGCGGGGCGCGUAGCCUCCCGCCGCCCUGCGGUUGGGCCGG	0.251
CCUAACUGUGUGUUUUCAGGGACAAUGCCAUCCAUGUUUGUGCUGUAGACUUGCUGCUGCUGAAUCCUUUCUGGGGACUUUCUCAUCGGGCAGGGAGCAGAGGGCUUCUC	0.683
UCAUCCCAAAUACUUAACCUCAUUCUUUAGUAAUGGUGUAGGUGGAUUGGCUCAGGUUUAAUACAUCUGUUAUUAUAUAAUCUAGCAAAAGUUGGAUUAUAGAUUAUAAC	0.222
UCCUCCCAGGAGGGAGGAGGGUGCGGCCCUCUCCCUGCAGGGGGAUCUGGGGACCCUCUCCCCGGCUGCCUCAGGCUUCUCCCACGAAGAGGAAACGCAAAAAAAGAAAA	0.308
ACCACUCUGGUGGCCACACAGCGCCUCAGAGAGCAUUCUGGGAAGUGCCUGUUUCCGAGGAACCCUGUCUCCAGCUUGUGGCUAUCUUACUGUGUUCUGCCCAGGCACCU	0.695
UUCUAGAGGCGUCACUGUAUGUAGUUCAUGGCUACUGUACUGACAGCGAGAGCAUGUCCAUCUGUUGGACAGCACUAUUCUAGAGAACUAAACUGGCUUAACGAGUCACA	1.23
UCAAAACAUAUUUUUUUUCAGGUGGUCUUUUUUGUGUCUGGCUUGCUGAGUGUAAAAGUUGUUAUCUGGACGAUCUGUCUCUCUGCUCCAAAGAAAUUUUGGAGUGAGUG	0.519
CCUGACUUCACUCAUUUGCUUUCUUUUCCUUGGAACCCUGCCUAAUAACUUCUGUGGGAGCUCAUCCCCCAAUCUUCGGUACUCUGCUUCCACAGUUGGAAAGUGGAACU	0.696

Block 4
Target: Fragile X messenger ribonucleoprotein 1, C-terminal low-complexity region (Fmr1, Mus musculus, UniProt P35922)
Technique: RNA Bind-n-Seq
Form: RNA
Sample: in vitro
Tested at: 200 nM
Notes: whole 134-nt RNA, ends assumed
Added: 150 mM LiCl
Baseline: input library
Reading: higher = stronger binding
Library: 7-deaza-guanosine replaces G
Constant ends, left off below: GGGAGUUCUACAGUCCGACGAUC … UGGAAUUCUCGGGUGUCAAGG
Oligonucleotide	log2 enrichment
UCCUGUGCUACACAUCGUAUGUACCGAAUCGGGAAAGGGUUUUUUUGGGUUUUUUUGGGAAAGUAUUAUGUUACGCCGUUCGGAUCUGCA	-1.53
UAACUUUAGAGGAGGAUCUGAUGGAUAUUGCAGUGGACGUGGAUUUGGGGAUGGCUAUAAUGGGUAUGGAGGAGGACCUGGAGGUGGCAA	0.432
CCUGUGCUACACAUCGUAUGUACCGAAUCGGGAAAAAAGGGAAAAAAGGGGAAAAAAGGGGAAAGUAUUAUGUUACGCCGUUCGGAUCUG	0.504
UGGGAGGUGGAUUUUGUUUAUUUUUUUAGCUCAUUUCCAGGGGUGGGAAUUUUCUUUUAAUAUGUGUCAUGAAUAAAGUUGUUUUUGAAA	-0.781
UGGCCCUGGUGGCAUGCGGGGAGGAAGAGGUGGCCUCAUGGAUCGUGGAGGUCCCGGUGGAAUGUUCAGAGGUGGCCGUGGUGGAGACAG	0.342
UGGGGACAAGCUGACAGCAGCCAUGGCGAGCGGCAGUGGAGACAGCGUCACCCGUCGGAGCGUGGCAUCACAGUUUUUCACUCAAGAGGA	-1.76
AAGUCCUGUGCUACACAUCGUAUGUACCGAAUCGGGGCCCGGGCCCGGGCCCGGGGAAAGUAUUAUGUUACGCCGUUCGGAUCUGCACUU	-2.33
UCCUGUGCUACACAUCGUAUGUACCGAAUCGGGGCCCCCGGGCCCCCGGGGCCCCCGGGGAAAGUAUUAUGUUACGCCGUUCGGAUCUGC	-3.05
UCCUGUGCUACACAUCGUAUGUACCGAAUCGGGGUUUUUGGGGAAAGGGGAAAAAGGGGAAAGUAUUAUGUUACGCCGUUCGGAUCUGCA	-0.553
ACCAUGCAGGUGGGCAUCUUUGGGAAGUGGGGCAAGGGGGGGAUAGGGAGGGGGGUAACACUUUGGGAACAGAUGGUCCCAGGUCGUUUC	1.47
AAGUCCUGUGCUACACAUCGUAUGUACCGAAUCGGGGCCCCGGGCCCCGGCCCCGGGAAAGUAUUAUGUUACGCCGUUCGGAUCUGCACU	-2.96

Block 5
Target: Histone acetyltransferase KAT6A, winged helix 2, GST fusion (KAT6A, Homo sapiens, UniProt Q92794, residues 85-181)
Technique: protein binding microarray
Form: double-stranded DNA, one strand shown
Sample: in vitro
Tested at: not given
Notes: 8-mer, flanks averaged, mean of 2 arrays, mostly near background
Baseline: not given
Reading: higher = stronger binding
Target sequence (chain): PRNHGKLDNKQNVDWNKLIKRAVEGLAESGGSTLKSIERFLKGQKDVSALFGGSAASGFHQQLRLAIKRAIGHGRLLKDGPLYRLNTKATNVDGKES
Oligonucleotide	E-score
CCACTTAG	0.0367
ATGACATC	-0.0617
ATTACTAC	-0.222
CAAATGTC	-0.0554
CTATACTA	-0.0644
TCTAGGAA	-0.0813
AATCGCCG	0.055
CAACATTG	-0.0969
GTGCGGGA	0.0909
ATAGCTCA	-0.0794
AAAGGGGT	-0.23
GCCCAGGC	0.148
GGGTCCGA	0.108
CATATAAC	-0.095
CTATACAG	-0.0612
CTCGCAAC	0.186
AGTAGTTG	-0.0173
TATTCAGA	0.0425
CAGTGTAG	0.0934
AGAATACC	0.0507
ATATGTGG	-0.0684
TGGGTACA	0.034

Excerpt of the above (block 1):
Oligonucleotide	E-score
ACGGTGCC	-0.346
AACGCGGT	-0.11
AGAGCTCA	-0.176
CGCCCGCG	-0.368
AAGGTATT	0.181
CTATTAGC	0.214
AGAGACCC	-0.213
CAGCAATA	0.215
CTTAACCA	0.126
AATAGGTA	0.322
